Published values pooled from the literature.
Parts stem from different laboratories: compare values within a part only.
Chain of UniProt P15056 (whole entry, looked up): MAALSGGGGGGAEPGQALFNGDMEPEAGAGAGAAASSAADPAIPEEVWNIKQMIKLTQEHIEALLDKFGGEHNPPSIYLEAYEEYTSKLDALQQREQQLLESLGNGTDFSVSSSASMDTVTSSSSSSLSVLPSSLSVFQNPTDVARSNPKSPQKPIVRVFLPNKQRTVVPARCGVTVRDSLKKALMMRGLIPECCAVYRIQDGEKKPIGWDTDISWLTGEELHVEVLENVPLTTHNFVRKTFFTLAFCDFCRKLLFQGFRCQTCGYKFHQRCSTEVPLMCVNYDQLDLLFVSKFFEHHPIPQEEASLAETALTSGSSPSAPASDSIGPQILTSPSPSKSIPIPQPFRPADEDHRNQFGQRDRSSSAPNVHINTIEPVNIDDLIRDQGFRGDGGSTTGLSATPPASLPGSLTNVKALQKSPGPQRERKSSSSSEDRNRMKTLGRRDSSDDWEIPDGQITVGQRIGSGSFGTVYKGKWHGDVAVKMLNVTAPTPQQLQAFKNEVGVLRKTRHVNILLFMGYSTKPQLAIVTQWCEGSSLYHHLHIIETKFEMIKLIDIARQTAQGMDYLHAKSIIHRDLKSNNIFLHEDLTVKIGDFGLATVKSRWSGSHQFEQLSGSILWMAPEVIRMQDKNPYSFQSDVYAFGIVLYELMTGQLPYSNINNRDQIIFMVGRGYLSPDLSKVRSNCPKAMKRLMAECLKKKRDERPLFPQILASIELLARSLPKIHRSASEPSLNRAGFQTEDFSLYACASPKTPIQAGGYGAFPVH
Chain of UniProt Q8WTQ7 (whole entry, looked up): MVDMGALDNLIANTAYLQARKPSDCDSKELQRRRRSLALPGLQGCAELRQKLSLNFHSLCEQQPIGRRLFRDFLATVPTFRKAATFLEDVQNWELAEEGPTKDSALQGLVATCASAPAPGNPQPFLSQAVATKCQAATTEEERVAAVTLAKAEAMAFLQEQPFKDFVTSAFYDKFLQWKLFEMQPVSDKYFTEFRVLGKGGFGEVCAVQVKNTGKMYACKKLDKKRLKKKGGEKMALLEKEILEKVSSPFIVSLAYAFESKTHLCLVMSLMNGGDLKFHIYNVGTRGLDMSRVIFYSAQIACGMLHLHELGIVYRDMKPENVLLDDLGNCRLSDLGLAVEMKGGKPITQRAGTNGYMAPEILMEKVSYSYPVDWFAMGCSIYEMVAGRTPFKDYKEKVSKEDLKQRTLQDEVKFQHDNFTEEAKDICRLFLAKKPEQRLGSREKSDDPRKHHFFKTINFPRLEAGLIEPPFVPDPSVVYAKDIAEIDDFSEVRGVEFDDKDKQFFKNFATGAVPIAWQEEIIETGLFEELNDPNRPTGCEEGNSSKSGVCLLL
Chain of UniProt P49761 (whole entry, looked up): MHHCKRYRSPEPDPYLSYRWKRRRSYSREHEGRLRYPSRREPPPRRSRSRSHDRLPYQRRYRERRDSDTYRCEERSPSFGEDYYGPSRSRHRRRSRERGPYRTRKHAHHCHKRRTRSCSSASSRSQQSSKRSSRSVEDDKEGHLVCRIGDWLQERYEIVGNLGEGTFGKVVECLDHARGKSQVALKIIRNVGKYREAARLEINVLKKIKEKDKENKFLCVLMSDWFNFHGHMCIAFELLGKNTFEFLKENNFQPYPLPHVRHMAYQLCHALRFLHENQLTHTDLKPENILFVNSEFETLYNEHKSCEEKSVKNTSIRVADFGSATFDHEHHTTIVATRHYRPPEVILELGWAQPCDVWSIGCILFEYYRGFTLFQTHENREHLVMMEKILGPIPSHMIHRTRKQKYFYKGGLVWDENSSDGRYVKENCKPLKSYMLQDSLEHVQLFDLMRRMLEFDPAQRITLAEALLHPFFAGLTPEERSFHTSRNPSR
Chain of UniProt P06213 (whole entry, looked up): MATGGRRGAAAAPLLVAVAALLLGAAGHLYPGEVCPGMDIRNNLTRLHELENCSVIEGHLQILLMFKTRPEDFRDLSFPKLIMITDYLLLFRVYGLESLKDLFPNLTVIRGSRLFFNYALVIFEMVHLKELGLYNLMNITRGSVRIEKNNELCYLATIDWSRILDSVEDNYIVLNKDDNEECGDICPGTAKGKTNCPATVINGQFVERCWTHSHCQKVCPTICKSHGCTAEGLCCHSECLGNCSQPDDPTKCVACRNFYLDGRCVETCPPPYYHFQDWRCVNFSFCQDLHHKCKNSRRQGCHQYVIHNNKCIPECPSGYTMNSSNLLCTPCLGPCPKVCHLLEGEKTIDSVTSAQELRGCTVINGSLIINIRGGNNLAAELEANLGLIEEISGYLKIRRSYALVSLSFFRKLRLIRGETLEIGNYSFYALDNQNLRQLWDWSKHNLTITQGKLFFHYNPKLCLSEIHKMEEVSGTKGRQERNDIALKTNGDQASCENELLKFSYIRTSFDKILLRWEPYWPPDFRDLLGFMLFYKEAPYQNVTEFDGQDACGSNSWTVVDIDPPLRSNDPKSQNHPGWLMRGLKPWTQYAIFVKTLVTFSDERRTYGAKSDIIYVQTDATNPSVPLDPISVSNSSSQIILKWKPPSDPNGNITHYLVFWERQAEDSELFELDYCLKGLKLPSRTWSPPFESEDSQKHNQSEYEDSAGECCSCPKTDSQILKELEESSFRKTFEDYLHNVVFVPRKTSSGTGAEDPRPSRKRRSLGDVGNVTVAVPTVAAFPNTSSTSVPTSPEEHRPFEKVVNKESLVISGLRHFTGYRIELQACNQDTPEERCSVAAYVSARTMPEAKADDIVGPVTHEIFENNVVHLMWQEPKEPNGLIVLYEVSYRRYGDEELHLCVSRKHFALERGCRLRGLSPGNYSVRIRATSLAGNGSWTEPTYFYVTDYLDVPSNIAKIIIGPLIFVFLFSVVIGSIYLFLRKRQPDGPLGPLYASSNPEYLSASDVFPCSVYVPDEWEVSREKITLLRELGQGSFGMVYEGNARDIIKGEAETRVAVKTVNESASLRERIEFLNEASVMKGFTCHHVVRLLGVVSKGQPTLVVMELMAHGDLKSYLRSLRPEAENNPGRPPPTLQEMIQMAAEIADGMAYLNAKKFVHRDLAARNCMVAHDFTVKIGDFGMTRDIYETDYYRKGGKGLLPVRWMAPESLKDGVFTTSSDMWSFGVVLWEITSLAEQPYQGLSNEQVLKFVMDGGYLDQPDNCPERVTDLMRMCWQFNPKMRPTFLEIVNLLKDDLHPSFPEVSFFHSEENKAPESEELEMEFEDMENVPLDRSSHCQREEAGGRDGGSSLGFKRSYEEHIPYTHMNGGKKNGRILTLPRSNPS

Sample 1
Target: Calcium/calmodulin-dependent protein kinase type II subunit alpha (CAMK2A, Homo sapiens, UniProt Q9UQM7)
Chain of UniProt Q9UQM7 (whole entry, looked up): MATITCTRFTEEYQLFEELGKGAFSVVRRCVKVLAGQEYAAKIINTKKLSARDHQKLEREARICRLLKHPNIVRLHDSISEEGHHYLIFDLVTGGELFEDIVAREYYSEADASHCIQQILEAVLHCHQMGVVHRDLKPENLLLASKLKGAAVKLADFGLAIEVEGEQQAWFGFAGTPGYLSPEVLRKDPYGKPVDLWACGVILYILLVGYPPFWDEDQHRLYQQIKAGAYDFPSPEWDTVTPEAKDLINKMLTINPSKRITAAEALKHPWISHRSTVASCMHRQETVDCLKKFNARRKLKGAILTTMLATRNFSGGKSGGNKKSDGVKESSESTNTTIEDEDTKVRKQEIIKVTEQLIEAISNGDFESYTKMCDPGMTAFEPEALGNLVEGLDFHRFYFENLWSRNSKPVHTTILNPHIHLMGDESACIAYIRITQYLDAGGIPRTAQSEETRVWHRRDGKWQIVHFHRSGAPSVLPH
Observed: enzyme activity
Action: inhibitor
Tested at: 10 µM
SMILES	inhibition [%]
CC(CCc1ccc(O)cc1)NCCc1ccc(O)c(O)c1 (centres unmarked)	4
O=C(O)C[C@@](O)(C(=O)O)[C@H](O)C(=O)O	-19
CC1CCc2c(N3CCC(O)CC3)c(F)cc3c(=O)c(C(=O)O)cn1c23 (centres unmarked)	0
COC(=O)C1=CO[C@@H](O)[C@@H]2C(CO)=CC[C@H]12	11
C[C@@H]1O[C@@H](O[C@H]2[C@H](OC(=O)[C@]34CCC(C)(C)C[C@H]3C3=CC[C@@H]5[C@@]6(C)C[C@H](O)[C@H](O[C@@H]7O[C@H](CO)[C@@H](O)[C@H](O)[C@H]7O)C(CO)(CO)[C@@H]6CC[C@@]5(C)[C@]3(C)C[C@H]4O)OC[C@H](O)[C@@H]2O)[C@H](O)[C@H](O)[C@H]1O[C@@H]1OC[C@@H](O)[C@H](O)[C@H]1O	-35
CCCCCCCC(=O)OC[C@@H](O)[C@@H](OC)[C@@H]1OC(C(=O)O)=C[C@H](N=C(N)N)[C@H]1NC(C)=O	-2
O=c1c(O[C@@H]2OC[C@H](O)[C@H](O)[C@H]2O)c(-c2ccc(O)c(O)c2)oc2cc(O)cc(O)c12	-80
CCCCCCCCCCCC(=O)OCN1C(=O)CCc2ccc(OCCCCN3CCN(c4cccc(Cl)c4Cl)CC3)cc21	-4
Cc1ccc(C(C)C)c(O)c1	-8
CC1(C)C=Cc2c(-c3c4c(c5ccccc5c3O)OC(C)(C)C=C4)c(O)c3ccccc3c2O1	-30
C=C(CC[C@@H](C(=O)O)[C@H]1[C@H](O)C[C@@]2(C)C3=C(CC[C@]12C)[C@@]1(C)CC[C@H](OC(C)=O)C(C)(C)[C@@H]1CC3)C(C)C	2
O=c1c2c(O)cc(O)cc2oc2c(O)ccc(O[C@@H]3O[C@H](CO)[C@@H](O)[C@H](O)[C@H]3O)c12	2
CC(C)=CC[C@@H](OC(=O)C(C)C)C1=CC(=O)c2c(O)ccc(O)c2C1=O	9

Sample 2
SMILES: COc1ccc2[nH]c3c4[nH]c5ccc(OC)cc5c4c4c(c3c2c1)C(=O)NC4=O
Tested at: 1 µM
target	technique	item	notes	reference	remaining binding [%]
SRC (Homo sapiens, UniProt P12931)	competitive binding panel			vehicle	87
CSNK1G1 (Homo sapiens, UniProt Q9HCP0)	competitive binding panel			vehicle	74
PAK1 (Homo sapiens, UniProt Q13153)	competitive binding panel			vehicle	70
PRKX (Homo sapiens, UniProt P51817)	competitive binding panel			vehicle	23
TNIK (Homo sapiens, UniProt Q9UKE5)	competitive binding panel			vehicle	3
TLK2 (Homo sapiens, UniProt Q86UE8)	competitive binding panel			vehicle	95
EPHB2 (Homo sapiens, UniProt P29323)	competitive binding panel			vehicle	84
WEE1 (Homo sapiens, UniProt P30291)	competitive binding panel			vehicle	53
MAPK14 (Homo sapiens, UniProt Q16539)	competitive binding		p38-alpha		87
CDKL3 (Homo sapiens, UniProt Q8IVW4)	competitive binding panel			vehicle	91
JAK2 (Homo sapiens, UniProt O60674)	competitive binding panel		JH1 catalytic domain	vehicle	84
BRAF (Homo sapiens, UniProt P15056)	competitive binding panel			vehicle	86
LYN (Homo sapiens, UniProt P07948)	competitive binding panel			vehicle	69
CDK11B (Homo sapiens, UniProt P21127)	competitive binding panel	CDC2L1		vehicle	90

Sample 3
Target: Inhibitor of nuclear factor kappa-B kinase subunit beta (IKBKB, Homo sapiens, UniProt O14920)
Chain of UniProt O14920 (whole entry, looked up): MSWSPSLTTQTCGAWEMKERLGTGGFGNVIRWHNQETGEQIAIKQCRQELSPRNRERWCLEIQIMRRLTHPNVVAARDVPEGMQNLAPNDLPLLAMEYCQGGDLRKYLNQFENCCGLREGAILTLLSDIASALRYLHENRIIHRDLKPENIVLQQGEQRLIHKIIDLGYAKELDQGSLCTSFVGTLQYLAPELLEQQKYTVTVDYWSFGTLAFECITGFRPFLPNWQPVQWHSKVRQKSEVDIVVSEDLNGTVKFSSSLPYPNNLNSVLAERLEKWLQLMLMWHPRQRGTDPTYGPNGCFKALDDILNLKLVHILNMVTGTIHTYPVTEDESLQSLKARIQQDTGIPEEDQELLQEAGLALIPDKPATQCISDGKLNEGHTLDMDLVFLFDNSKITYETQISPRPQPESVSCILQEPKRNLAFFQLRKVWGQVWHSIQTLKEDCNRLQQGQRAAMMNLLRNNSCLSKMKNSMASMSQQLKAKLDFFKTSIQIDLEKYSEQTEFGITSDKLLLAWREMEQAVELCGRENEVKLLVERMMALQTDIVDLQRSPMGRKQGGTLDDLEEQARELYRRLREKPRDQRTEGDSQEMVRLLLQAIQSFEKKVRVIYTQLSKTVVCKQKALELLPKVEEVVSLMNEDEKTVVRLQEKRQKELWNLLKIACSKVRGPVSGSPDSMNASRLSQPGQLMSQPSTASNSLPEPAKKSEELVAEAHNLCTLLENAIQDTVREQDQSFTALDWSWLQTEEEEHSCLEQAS
Observed: enzyme activity
Action: inhibitor
Tested at: 0.5 µM
Reference: control
Compound	remaining activity [%]
Nc1[nH]nc2nc3ccccc3nc12	102
OCC(O)CCON=C1C(c2c(O)[nH]c3ccccc23)=Nc2ccccc21 (centres unmarked)	90.5
COc1ccc(CNC(=O)Nc2ncc([N+](=O)[O-])s2)cc1	94.9
COc1cc2nccc(Oc3ccc(NC(=S)NC(=O)c4ccccc4C)cc3)c2cc1OC	99.4
Cn1sc(=O)n(Cc2ccccc2)c1=O	112
COc1cc2ncnc(Nc3ccc(Oc4ccccc4)cc3)c2cc1OC	106
CN(C)c1ccc(C=C2C(=O)Nc3ccccc32)cc1	105
CNC(=O)c1cc(Oc2ccc(NC(=O)Nc3ccc(Cl)c(C(F)(F)F)c3)cc2)ccn1	88.3
Nc1ncnc2n[nH]c(Nc3ccc(F)cc3)c12	105
N#CC(C#N)=C(N)/C(C#N)=C/c1ccc(O)cc1	102
O=C1NC(=O)C(c2cn(CCCn3ccnc3)c3ccccc23)=C1Nc1ccccc1	110
Oc1ccc(-c2nc(-c3ccncc3)c(-c3ccc(F)cc3)[nH]2)cc1	110
CC(C)[C@H](CO)Nc1nc(Nc2cc(N)cc(Cl)c2)c2ncn(C(C)C)c2n1	104
Cc1cccc(-c2[nH]c(C(C)(C)C)nc2-c2ccc3c(c2)OCO3)n1	105

Sample 4
Structure (SMILES): COCCOc1nc(-c2ccc(Cl)nc2)nc2c1CN(C(=O)c1ncn3ccccc13)CC2
Observed: cell-free assay
Technique: competition with immobilised ligand
Tested at: 0.1 µM
target	remaining binding [%]
MAP2K5 (Homo sapiens, UniProt Q13163)	100
NTRK2 (Homo sapiens, UniProt Q16620)	100
CLK3 (Homo sapiens, UniProt P49761)	100
FGFR4 (Homo sapiens, UniProt P22455)	90
TEC (Homo sapiens, UniProt P42680)	100
NEK5 (Homo sapiens, UniProt Q6P3R8)	100
MAPK7 (Homo sapiens, UniProt Q13164)	100
NUAK2 (Homo sapiens, UniProt Q9H093)	100
PIK3CA (Homo sapiens, UniProt P42336, E545K)	71
CSNK2A1 (Homo sapiens, UniProt P68400)	99
MAP3K19 (Homo sapiens, UniProt Q56UN5)	100
ACVRL1 (Homo sapiens, UniProt P37023)	100
MAP3K15 (Homo sapiens, UniProt Q6ZN16)	100
NEK1 (Homo sapiens, UniProt Q96PY6)	100
DAPK3 (Homo sapiens, UniProt O43293)	100
GRK7 (Homo sapiens, UniProt Q8WTQ7)	91
Insulin receptor (INSR, Homo sapiens, UniProt P06213)	76
BRAF (Homo sapiens, UniProt P15056)	100
GSK3B (Homo sapiens, UniProt P49841)	100
ROCK1 (Homo sapiens, UniProt Q13464)	93
SRC (Homo sapiens, UniProt P12931)	95

Excerpt of the above (sample 4):
target	remaining binding [%]
Insulin receptor (INSR, Homo sapiens, UniProt P06213)	76
BRAF (Homo sapiens, UniProt P15056)	100
GSK3B (Homo sapiens, UniProt P49841)	100
ROCK1 (Homo sapiens, UniProt Q13464)	93
